Measurements from different studies.
Every numbered part comes from another study and shows a few of its results, in no order. Changes are numbered by the printed parent chain.

Series 1
Target: CCNB2, cyclin fold, Cln2 fusion (human)
Technique: yeast growth competition, sequencing
Matrix: yeast
Setting: weak parent motif
Baseline: not given
Reading: higher = stronger binding
Quantity: normalised enrichment score
Parent: CDKN1A docking peptide (human); SKACRRLFGPVDS; partner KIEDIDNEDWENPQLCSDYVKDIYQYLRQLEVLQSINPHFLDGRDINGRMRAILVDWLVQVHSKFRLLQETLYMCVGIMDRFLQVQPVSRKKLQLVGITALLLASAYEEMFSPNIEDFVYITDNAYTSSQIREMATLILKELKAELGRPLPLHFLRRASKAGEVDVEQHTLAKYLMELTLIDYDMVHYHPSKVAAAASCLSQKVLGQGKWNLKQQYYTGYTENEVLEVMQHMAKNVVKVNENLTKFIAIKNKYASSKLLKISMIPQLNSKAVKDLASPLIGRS
R5G: -0.159
R5L: -0.188
R6L: -0.0625
R5W: 0.125
F8W: -0.222
R5H: 0.0976
A3S: -0.0674
D12P: 0.304
G9S: 0.108
P10T: 0.128
L7N: 0.314
K2Q: 0.214
A3L: 0.102
C4Q: 0.758
P10R: 1.15

Series 2
Target: RNA binding protein fox-1 homolog 2, RRM domain, GST-SBP tag (RBFOX2, Homo sapiens, UniProt O43251-10, residues 100-194)
Technique: RNA Bind-n-Seq
Form: RNA
Matrix: in vitro
Concentration: 365 nM
Setting: natural RNA segment, single round, ends assumed
Baseline: no-protein control
Reading: higher = stronger binding
Quantity: RBNS enrichment (R)
Residues (chain): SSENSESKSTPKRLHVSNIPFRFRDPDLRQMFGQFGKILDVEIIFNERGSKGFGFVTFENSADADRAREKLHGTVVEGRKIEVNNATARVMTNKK
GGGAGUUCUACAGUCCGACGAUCACUCAACAAUAAGGUUUUAGUUACUGUAUACACUUAACCAAGUUGUGUGACCUAUGACCUACUUUGCAUGCUCUGAUACUGUGUGCCGCCCCCACCCCCACCCCCCAGGUUGGAAUUCUCGGGUGCCAA: 1.68
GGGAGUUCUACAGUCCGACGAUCAGUUCUGAGCCGGGCAAGUCGAGAGGGCUGUUGGACAGCUGCUUGUGGGCCCGGAGUAAUCAGGCAGCCUUCAUAGGCGGUCAUGUGUGCAUGUGAGCACAUGCGUAUAUUGGAAUUCUCGGGUGCCAA: 1.57
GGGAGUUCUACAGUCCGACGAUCAAACAAUCCCGACAAUCCCUUAUCCCUACCCCAACCCUUUGCGGCUCUGUACACAUUUUUAAACCUGGCAAAAGAUGAAGAGAAUAUUGUAAAUAUAAAAGUUUAACUGUUGGAAUUCUCGGGUGCCAA: 0.735
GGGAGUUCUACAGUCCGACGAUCAAUCUCAGAAUGGAUGGAAAAGAGGAAGACAUUAGGGACUGUCAGGUCCAUUUAAAGAGGAAAUUACAUUGUUACUCUUCUUGAUCUCCUCAGGCUAUGUAAGUCUGAAGUGGAAUUCUCGGGUGCCAA: 0.786
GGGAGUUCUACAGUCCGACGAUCCCCCACACCCCGUCUCUCACCAAGAGUUACUGAUUUUGCUCAUCCACUUCCCUACACAUCUAUGGGUAUCACACCCAAGACUACCCACCAAGCUCAUACAGGGAACCACAUGGAAUUCUCGGGUGCCAA: 0.684
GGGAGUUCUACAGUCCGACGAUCAGAUUAAUUUUUCCAUAAAACCAUUUUGAACCAAUGAACCAGUCAAUAAUUUUAAGGUUCUGUUUUAAAUGUAAGAAUUCCAACUUACAGUCUAUUAAAAUUCAGCCCUAUGGAAUUCUCGGGUGCCAA: 0.692
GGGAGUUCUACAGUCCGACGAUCUGCGGAUUCUGUUUUUGAGCCGUGGACUUGGGUUGUAAAUUUAUUUGUGGGGAGUGCGCUCCAGGAAGAGCCACCAUCCCUGCCCCCGUUUUCCCACCGGGGAGUCUGUAUGGAAUUCUCGGGUGCCAA: 0.301
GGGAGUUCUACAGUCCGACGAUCUGGCUAACCGCCUCUUAGCCCACGGUUACCCAGUCAUUUGUCUCAGUUAACAUUUAAAGGAGUUUUUGUGAGACAAAUUCUCCAUUGUGAGAUCUCUGAAGUGGGAUUGUUGGAAUUCUCGGGUGCCAA: 0.35
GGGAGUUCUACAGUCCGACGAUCCAGAUCUGUCUUUCCCAAAUGAAAGGUUAGUCCCAUAGACCACUGGCUAUUCAGGGAAAUUACUCUCUACCUCCCCAUGACAUGGAUGAUAAGUGUUGAGGGAUGAACACUGGAAUUCUCGGGUGCCAA: 0.468
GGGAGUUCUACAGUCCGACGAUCAUUGUUGUAUGGUCUCAAAUCCCAAGAUUUAAAUCACUUACCUAUUUAAUUGUGGAAAAUGAUUAUGAAGAACAUGUGUAUUUCUAUCUGGUAGUGAUGUAUAUUUUACAUGGAAUUCUCGGGUGCCAA: 0.403
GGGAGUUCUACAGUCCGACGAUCUAAGUAAAACUAAAAGCACAGAAUGGUGGGAAAGGGGCUAUAAUGUGGUUCAUUAAUAAUGUUAGCAGCUUUUUUCUAACCAUCCUGUCUAAUGGUUAAGACACCAGUAAUGGAAUUCUCGGGUGCCAA: 0.287
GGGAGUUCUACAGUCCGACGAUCGAAGAAAUUAAAUGAAUUUCCCAGGCUUUUAGGAUCCUCUGAAAUUUUGAGGAUAGGUGAGGCCUGAAUUCCUGUCCUUAUUUCUUCUGACCAGAAGUUGCACAGACAUGUGGAAUUCUCGGGUGCCAA: 0.514

Series 3
Target: JUNB, bZIP domain (human)
Technique: DHFR protein complementation
Matrix: yeast
Setting: single substitutions, most at no-binding floor
Baseline: wild-type JUN-FOS pair
Reading: higher = stronger binding
Quantity: binding fitness
Parent: JUN, bZIP domain (human); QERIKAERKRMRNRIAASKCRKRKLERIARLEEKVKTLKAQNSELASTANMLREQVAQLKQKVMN; partner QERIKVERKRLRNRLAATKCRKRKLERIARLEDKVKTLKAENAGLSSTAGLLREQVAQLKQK
A29T: -1.24 natural log
V56E: -1.42 natural log
V35K: -1.27 natural log
K34Q: -0.755 natural log
E32N: -1.37 natural log
N42Y: -1.53 natural log
A49W: -1.41 natural log
A49V: -0.0739 natural log
S47K: -0.749 natural log
E54H: -1.22 natural log

Series 4
Target: RING finger protein unkempt homolog, zinc fingers 1-6, SBP tag (UNK, Homo sapiens, UniProt Q9C0B0, residues 30-357)
Sequence of UniProt Q9C0B0 (30-357, looked up): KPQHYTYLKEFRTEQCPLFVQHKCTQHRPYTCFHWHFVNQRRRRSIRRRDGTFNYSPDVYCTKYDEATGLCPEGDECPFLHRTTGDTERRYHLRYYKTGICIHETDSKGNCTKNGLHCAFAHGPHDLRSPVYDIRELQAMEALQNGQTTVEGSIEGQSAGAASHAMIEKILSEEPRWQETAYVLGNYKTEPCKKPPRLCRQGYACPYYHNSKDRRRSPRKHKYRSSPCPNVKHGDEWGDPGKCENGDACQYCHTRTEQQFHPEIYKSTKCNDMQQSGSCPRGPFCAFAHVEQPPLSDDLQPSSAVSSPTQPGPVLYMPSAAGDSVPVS
Technique: RNA Bind-n-Seq
Form: RNA
Matrix: in vitro
Concentration: 100 nM
Setting: RNA with constant flanks, vertebrate orthologous sites, ends assumed
Baseline: input RNA pool
Reading: higher = stronger binding
Quantity: bound/input enrichment
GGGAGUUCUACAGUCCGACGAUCCCAAAAGGCCAAAUUCCCUCCUCCCUUCUACUGCUUCUACCAACUGGAAGCACAGAAAACUAGAAUUUCAUUUAUUUUGUUUUUAAAAUACCUAUGUUGAUUUCUUGUAACAUCCAAUAGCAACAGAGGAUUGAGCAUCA: 1 ratio
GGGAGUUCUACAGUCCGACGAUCAUUACUGUUAAGCACUGUGUUCCAGACGGUGUCUGACUUAGUGUAACCUAGGAGAUUUUCUAGUUUUAUUUUAACGAAACCCUGAUGGGCGCACAGCAGUGAGGAGAACAGCGUCUUUUACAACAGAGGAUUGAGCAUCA: 0.796 ratio
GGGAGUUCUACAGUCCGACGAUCCCCAAAGGCCAAAUUCCCUCCUCCCUUCUACUGCUUCUACCAACUGGAAGCACCGAAAACUAGAAUUUCAUUUAUUUUGUUUUAAAAAAAACAUUGAUUUCUUGUAACACCCAAUAGGAACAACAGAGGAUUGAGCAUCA: 1.39 ratio
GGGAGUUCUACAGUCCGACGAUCUUGAGAACAGCUCUCCAAAUAGGAAUAGUAGUAAAAAAAAUAAGCAAAAUGAUAUUUGUAUAGAAAAAACAGAAGUUAAAUCAUGUAAAGUAAAUGCUGCCAAUCUUCCAGGUCCUAAAGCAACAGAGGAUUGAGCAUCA: 0.903 ratio
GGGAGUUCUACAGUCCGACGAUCUUCAUUACCUGAGCCGAGUGGAGGUGACGGAGUUUGAAGACAUCAAGUCAGGCUACAGAAUAGAUUUUGUAAGUGUUUAAUGGUUUGACGUAACGCUGUGGUGACUUUUUUUUUUUUUCCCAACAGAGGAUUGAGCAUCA: 0.553 ratio
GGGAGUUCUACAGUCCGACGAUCUUAUUUUCGAUCUCUUCCUCCCCUUCCUGAUUUUAAAAGCCCUUCUUUUUUUAGGCAUAUGUAGUAACAUUAGCAAAAAAGAUUUUAAUUUGGGCAACUUUGAUUCUUAAAACAGAAAACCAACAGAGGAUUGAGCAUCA: 0.329 ratio
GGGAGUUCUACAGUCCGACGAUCAAUCAGUAGAAUUACAUGAUACUAAACUUGCAUUUGAAAGGAUAUCCAAGUAUGUGUUGGUAGUUACUAAAAGAAUUAUAGCUGUUAUUGCCUUGUAUUUAUAGUCCUUGUUUCAGGUUUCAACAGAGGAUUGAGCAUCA: 0.924 ratio
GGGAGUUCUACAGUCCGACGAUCACAGAAGAAGAGCUCACAACUCAAAAGGAACUAUUAAAAGAGUUUCUAAUGGCUGAAAGCUAGGAAAAAUUAGGACAAUUUUACAAAUGAGCCAUUAAAACAAAACAAAAAAAGAUAUGGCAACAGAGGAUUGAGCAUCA: 1.1 ratio
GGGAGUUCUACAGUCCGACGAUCCUCACUUCCAGGUUGGGUCUAGUGGAAAAGUCAUAGGAAUUGACCACAUUAAAGAGCUAGUAGAUGACUCAAUAAAUAAUGUCAGAAAGGACGAUCCAAUGCUUUUGUCUUCAGGGAGAGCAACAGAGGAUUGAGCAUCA: 0.585 ratio
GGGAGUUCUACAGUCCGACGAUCCAGCUGACUCACUUAUUGGGAGAGCUGCACAUAUAGCUGUUCUUGAUUCAGAAAUAUUUUUAGAGAAAUUCUUUCUGGUUGCUGCCCUCAAAUAUUUCCAGUAGUAUAAAACAUUGUUAACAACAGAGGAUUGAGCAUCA: 1.07 ratio
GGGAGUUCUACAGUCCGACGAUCCCUUAAUAUAGGGUAGUGUAUGUUUCAAAAAGGAAAAUCUGCAUAGUUUUGUUUGUCAUAUAGUAUUUUGGAAUUUGUAUAAUGAGGAUGUUUAGAAGCCAUAUGAAUGGCUUUUUUUAACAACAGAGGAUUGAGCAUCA: 0.668 ratio

Series 5
Target: Interferon regulatory factor 7, full length, phosphomimetic (IRF7, Homo sapiens, UniProt Q92985, residues 1-503, S471D/S472D/S475D/S476D/S477D/S483D/S484D/S487D)
Sequence of UniProt Q92985 (whole entry, unmodified, looked up): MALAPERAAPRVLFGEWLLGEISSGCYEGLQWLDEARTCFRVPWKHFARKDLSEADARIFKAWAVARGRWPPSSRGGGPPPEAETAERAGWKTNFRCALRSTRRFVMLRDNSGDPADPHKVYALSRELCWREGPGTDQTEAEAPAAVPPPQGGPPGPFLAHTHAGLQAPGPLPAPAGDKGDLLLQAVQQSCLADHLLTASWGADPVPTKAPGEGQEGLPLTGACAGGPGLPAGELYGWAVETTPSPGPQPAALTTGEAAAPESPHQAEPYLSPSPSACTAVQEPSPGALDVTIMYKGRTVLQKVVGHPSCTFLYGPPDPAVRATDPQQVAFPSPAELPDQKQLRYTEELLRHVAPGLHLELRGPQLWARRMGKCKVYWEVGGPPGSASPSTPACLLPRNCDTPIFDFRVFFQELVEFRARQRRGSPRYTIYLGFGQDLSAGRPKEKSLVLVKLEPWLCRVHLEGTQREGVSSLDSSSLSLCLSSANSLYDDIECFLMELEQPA
Technique: protein-binding microarray
Form: double-stranded DNA, one strand shown
Matrix: in vitro
Concentration: 2200 nM top
Setting: 60-bp whole probe
Added: salmon DNA 0.4 mg/ml
Baseline: random background probes
Reading: higher = stronger binding
Quantity: fitted relative affinity
All sequences stand within: GCCTAGCAC … GTCTTGATTCGCTTGACGCTGCTG
TTAGATTTCGGGACCGGATTAGTGCTA: 1.11 z-score
TTAGGTATCGGTCTAGGTTAGTGCTAG: 0.545 z-score
GAAGGTTTCCTTTTCCTGACGTGCTAG: 4.73 z-score
AACGGTTTCCTTTTCCTGACGTGCTAG: 5.28 z-score
TTAGATTTCGGGTATCAATTAGTGCTA: 2.54 z-score
TCATACATGAGTTTAGAACTGTGCTAG: 0.00442 z-score
TCAGATTTCAGTTTCTCACTGTGCTAG: 3.15 z-score
TCATTTGTCCCTATTTAACTGTGCTAG: 2.63 z-score
AACGATGCAAGTGCCCTTCGGTGCTAG: -0.0566 z-score
GACGGTTTCGACTTTCGGAACGTGCTA: 8.59 z-score
CTCTTCTTTTTTTTCTTTAAGTGCTAG: 2.41 z-score
GACGGTTTCGGTCTCGGAACGTGCTAG: 6.57 z-score
TCAGTTGTAGTTTTCATACTGTGCTAG: 1.54 z-score
TTAGGTTTCGGTTTCGTTTAGTGCTAG: 16.6 z-score
TGTTATTAAAATTTCATGAAGTGCTAG: -0.209 z-score
GACGGTCTCGGACTGCGGACGTGCTAG: -0.332 z-score
TTAGGTCTCGGTTTCGGTTAGTGCTAG: 7.13 z-score
TCATTTTTTTTTTTTACACTGTGCTAG: 2.26 z-score
TCAATTCTCATTTCCAAACTGTGCTAG: 1.8 z-score
GACGTTTTCGGTATCGGGACGTGCTAG: 7.31 z-score
TACAGGATGGTTTTCAGAGAGTGCTAG: 0.0215 z-score
ATTTCTTTCTAATTCAAAGTGTGCTAG: 2.41 z-score
GACGATTCCAGACTGGAGACGTGCTAG: 0.173 z-score
TCATCAATCATTTTAGTACTGTGCTAG: 0.979 z-score
TGCTTCCTCTTTTTTGTTCCGTGCTAG: 3.07 z-score

For quick reference, copied from above (series 5):
GAAGGTTTCCTTTTCCTGACGTGCTAG: 4.73 z-score
AACGGTTTCCTTTTCCTGACGTGCTAG: 5.28 z-score
TTAGATTTCGGGTATCAATTAGTGCTA: 2.54 z-score
TCATACATGAGTTTAGAACTGTGCTAG: 0.00442 z-score
TCAGATTTCAGTTTCTCACTGTGCTAG: 3.15 z-score
TCATTTGTCCCTATTTAACTGTGCTAG: 2.63 z-score
AACGATGCAAGTGCCCTTCGGTGCTAG: -0.0566 z-score
GACGGTTTCGACTTTCGGAACGTGCTA: 8.59 z-score
CTCTTCTTTTTTTTCTTTAAGTGCTAG: 2.41 z-score
GACGGTTTCGGTCTCGGAACGTGCTAG: 6.57 z-score
TCAGTTGTAGTTTTCATACTGTGCTAG: 1.54 z-score
